Measured values of several laboratories.
Parts stem from different laboratories: compare values within a part only.
Sequence of UniProt P41743 (whole entry, looked up): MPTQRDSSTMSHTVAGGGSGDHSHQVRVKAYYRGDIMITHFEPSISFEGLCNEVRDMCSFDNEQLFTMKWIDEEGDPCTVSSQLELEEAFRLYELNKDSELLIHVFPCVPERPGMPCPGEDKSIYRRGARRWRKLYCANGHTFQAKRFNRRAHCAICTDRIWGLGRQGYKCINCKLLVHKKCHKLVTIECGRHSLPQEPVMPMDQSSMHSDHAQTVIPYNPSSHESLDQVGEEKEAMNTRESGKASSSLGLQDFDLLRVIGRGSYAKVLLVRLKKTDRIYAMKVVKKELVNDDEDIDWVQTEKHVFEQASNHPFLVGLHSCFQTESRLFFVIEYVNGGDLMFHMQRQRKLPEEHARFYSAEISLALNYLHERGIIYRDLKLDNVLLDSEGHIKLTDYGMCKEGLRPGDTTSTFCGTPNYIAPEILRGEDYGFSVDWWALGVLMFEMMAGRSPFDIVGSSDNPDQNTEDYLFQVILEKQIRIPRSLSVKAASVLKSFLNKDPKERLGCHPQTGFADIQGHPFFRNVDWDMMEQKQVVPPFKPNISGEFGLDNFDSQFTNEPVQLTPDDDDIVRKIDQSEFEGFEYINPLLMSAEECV

Set 1 — partner: H3-3A (Homo sapiens, UniProt P84243); method: cross-linking MS; notes: hits only
For `H2AC7 (Homo sapiens, UniProt P20671)`, interaction screen read “cross-linked”.
Under interaction screen, `H2BC12 (Homo sapiens, UniProt O60814)` is recorded as “cross-linked”.
Under interaction screen, `HMGA1 (Homo sapiens, UniProt P17096)` is recorded as “cross-linked”.
For `H1-3 (Homo sapiens, UniProt P16402)`, interaction screen read “cross-linked”.
`Histone H2A type 1-B/E (Homo sapiens, UniProt P04908)` — result for interaction screen: “cross-linked”.
`H2BC12L (Homo sapiens, UniProt P57053)` — result for interaction screen: “cross-linked”.

Set 2 — method: RNA Bind-n-Seq; molecule type: RNA; sample: in vitro; concentration: 20 nM; notes: 6-mer, flanks averaged, single round; with: 150 mM LiCl; relative to: input library; reading: higher = stronger binding
Target: TAR DNA-binding protein 43, full length, His tag (TARDBP, Homo sapiens, UniProt Q13148, residues 1-414)
Under “6-mer enrichment (R)”, `UGGCAU` is recorded as 0.964.
`CACGAU`: “6-mer enrichment (R)” 0.806.
For `CGCAGU`, “6-mer enrichment (R)” read 0.926.
`GGUAAC`: “6-mer enrichment (R)” 0.885.
For `UUGCGU`, “6-mer enrichment (R)” read 1.23.
`UGCUCC` — result for “6-mer enrichment (R)”: 0.983.
Under “6-mer enrichment (R)”, `UGAUUG` is recorded as 1.08.
`GGACAA` — result for “6-mer enrichment (R)”: 0.938.

Set 3 — method: protein-binding microarray; molecule type: double-stranded DNA, one strand shown; sample: in vitro; concentration: 250 nM; notes: 60-bp whole probe; with: salmon DNA 0.4 mg/ml; relative to: random background probes; reading: higher = stronger binding; constant ends, left off below: GCCTAGCAC … GTCTTGATTCGCTTGACGCTGCTG
Target: Interferon regulatory factor 5, full length, phosphomimetic (IRF5, Homo sapiens, UniProt Q13568-2, residues 1-514, K96S/S451D/S453D/S456D/S462D)
For `TTAGGTATCGTACTGGGTTAGTGCTAG`, the log fluorescence was 0.978 z-score.
`TTTTTTTTCATCATTGCCTGGTGCTAG` has a log fluorescence of 1.95 z-score.
For `TTAGGTCGCCTTTTCCTTTAGTGCTAG`, the log fluorescence was 0.121 z-score.
For `TTAAGCCCACTATCTAGCCCGTGCTAG`, the log fluorescence was -0.217 z-score.
`TCAGCTTTTTTTTTTTTACTGTGCTAG` has a log fluorescence of 0.864 z-score.
`TTAGATTTCAGTATGGATTAGTGCTAG` gave a log fluorescence of 2.09 z-score.
`GACGATATCGGGACTGGGGACGTGCTA` gave a log fluorescence of 0.96 z-score.
With `GACGGTATCGGGTTTCTGGACGTGCTA` the log fluorescence was 2.55 z-score.

Other studies, line by line
For CN1CCN(c2ccc3nc(-c4c(N)c5c(F)cccc5[nH]c4=O)[nH]c3c2)CC1, the remaining activity was 105% (Protein kinase C iota type (PRKCI, Homo sapiens, UniProt P41743); enzyme activity, inhibitor; 0.5 µM; relative to: control).

For quick reference, copied from above (set 1):
`H2BC12L (Homo sapiens, UniProt P57053)` — result for interaction screen: “cross-linked”.
For `H2AC7 (Homo sapiens, UniProt P20671)`, interaction screen read “cross-linked”.
